{"data": "Published values from different studies", "note": "Lines come from different studies, so protocols differ. Numbers after ± are the reported error."}
{"Compound": "Cc1nn(C)c2c(C(C(=O)O)N3CC(OCCCCc4ccc5c(n4)NCCC5)C3)cccc12 (stereo not drawn)", "system": "rat, pulmonary artery banding model", "measurement": "cardiomyocyte cross-sectional area", "result": "decreased"}
{"Compound": "CCC1NC(=O)C(CCCNC(=N)N)NC(=O)C(C)(NC(=O)C(C)C)CCCCNC(=O)C(c2ccccc2)NC1=O (stereo not drawn)", "test": "flow cytometry", "system": "MLL-AF9 leukaemia cells, mouse", "measurement": "c-Kit expression", "result": "decreased"}
{"Compound": "COc1cc([C@@H]2c3cc4c(cc3C=C(C=O)[C@H]2C(=O)OCCCCCCBr)OCO4)cc(OC)c1OC", "target or system": "Leishmania infantum", "test": "Alamar Blue", "system": "HepG2", "scale": "reference: CC50 HepG2 over EC50 amastigotes", "measurement": "selectivity index", "result": 3.8}
{"Compound": "CCOC(=O)C1=C(C)NC2=C(C(=O)CC(C)(C)C2)C1c1ccc(OCC(=O)NN=Cc2cccc(C=O)c2)cc1OCC(=O)NN=Cc1cccc(C=O)c1 (stereo not drawn)", "target or system": "Pseudomonas fluorescens", "conditions": "concentration not given, 24 h", "measurement": "inhibition zone diameter", "result": "2.1 ± 0.1 mm"}
{"Compound": "CC(=NN=c1[nH]c2cc(F)c(F)cc2n1C)c1ccc(F)cn1", "system": "LM2 xenograft, mice", "conditions": "10 mg/kg/day, four weeks", "measurement": "tumour volume reduction", "result": "> 50%"}
{"Compound": "CCCCN(CCc1ccc(Cl)c(Cl)c1)C[C@H](O)COc1ccc(NS(C)(=O)=O)cc1", "test": "neuroprotection, measured: infarct volume", "system": "mouse, transient MCAO", "conditions": "intraperitoneal, 20 min before occlusion", "measurement": "ED50", "result": "< 1 mg/kg"}
{"Compound": "COc1cc([C@@H]2c3cc4c(cc3[C@@H](CC(C)(C)O)[C@H]3COC(=O)[C@H]23)OCO4)cc(OC)c1OC", "target or system": "Leishmania", "system": "mouse splenocytes", "scale": "reference: CC50 over amastigote EC50", "measurement": "selectivity index", "result": 1.1}
{"Compound": "C=CC(=O)N1CCC(c2cc(Nc3cc4n(n3)CCOC4)c3ncnn3c2)C1 (single isomer, unassigned)", "target or system": "TMD8 wild type", "test": "calcium flux, FLIPR", "conditions": "4 h preincubation, added: anti-IgM", "measurement": "maximum inhibition", "result": "23.5%"}
{"Compound": "COC(=O)[C@@H]1C(C=Nc2cc(C)ccc2O)=Cc2cc3c(cc2[C@H]1c1cc(OC)c(OC)c(OC)c1)OCO3", "target or system": "Leishmania infantum", "test": "iRFP fluorescence", "system": "mouse splenocytes infected, amastigote, iRFP, ex vivo splenic explant", "conditions": "48 h", "measurement": "EC50", "result": "70.5 ± 3.7 µM"}
{"Compound": "Cc1ncsc1-c1ccc([C@H](C)NC(=O)[C@@H]2C[C@@H](O)CN2C(=O)[C@@H](NC(=O)CCCCCCC(=O)N2CCN(C[C@]3(C)CCC(c4ccc(Cl)cc4)=C(CN4CCN(c5ccc(C(=O)NS(=O)(=O)c6ccc(N[C@H](CCN7CCOCC7)CSc7ccccc7)c(S(=O)(=O)C(F)(F)F)c6)cc5)CC4)C3)CC2)C(C)(C)C)cc1", "test": "measured: Gpc3", "system": "STAM mice NASH-HCC model, liver", "conditions": "dose not given, day 150, treated days 45-150", "measurement": "expression level", "result": "decreased"}
{"Compound": "COc1cc([C@@H]2c3cc4c(cc3[C@@H](OC(C)C)[C@H]3COC(=O)[C@H]23)OCO4)cc(OC)c1OC", "target or system": "Leishmania", "system": "mouse splenocytes", "scale": "reference: CC50 over amastigote EC50", "measurement": "selectivity index", "result": 0.5}
{"Compound": "CCOc1ccccc1Nc1nnc(SCC(=O)Nc2cc(F)ccc2F)s1", "target or system": "A549 spheroids with human PBMCs", "conditions": "5 µM, 48 h, E:T 5:1, added: anti-CD3 0.3 µg/mL", "measurement": "IFN-γ level", "result": "71 ± 6 pg/mL"}
